Experimental data pooled from the literature.
Parts stem from different laboratories: compare values within a part only.
Chain of UniProt P37173 (whole entry, looked up): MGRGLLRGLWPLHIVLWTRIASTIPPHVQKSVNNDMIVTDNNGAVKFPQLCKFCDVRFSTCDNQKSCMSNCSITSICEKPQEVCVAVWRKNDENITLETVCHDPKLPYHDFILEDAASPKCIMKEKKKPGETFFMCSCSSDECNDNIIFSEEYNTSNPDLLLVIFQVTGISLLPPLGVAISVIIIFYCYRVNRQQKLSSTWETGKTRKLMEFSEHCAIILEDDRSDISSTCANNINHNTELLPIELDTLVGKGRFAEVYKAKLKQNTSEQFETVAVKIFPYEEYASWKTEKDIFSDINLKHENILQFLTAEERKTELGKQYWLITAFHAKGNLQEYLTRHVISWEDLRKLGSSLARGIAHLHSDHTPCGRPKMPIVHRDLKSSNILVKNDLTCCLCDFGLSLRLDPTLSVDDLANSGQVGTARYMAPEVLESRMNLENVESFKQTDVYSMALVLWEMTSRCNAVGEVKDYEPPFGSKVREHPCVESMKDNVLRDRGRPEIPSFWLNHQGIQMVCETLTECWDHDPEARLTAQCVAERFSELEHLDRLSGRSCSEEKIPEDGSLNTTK
Chain of UniProt P51955 (whole entry, looked up): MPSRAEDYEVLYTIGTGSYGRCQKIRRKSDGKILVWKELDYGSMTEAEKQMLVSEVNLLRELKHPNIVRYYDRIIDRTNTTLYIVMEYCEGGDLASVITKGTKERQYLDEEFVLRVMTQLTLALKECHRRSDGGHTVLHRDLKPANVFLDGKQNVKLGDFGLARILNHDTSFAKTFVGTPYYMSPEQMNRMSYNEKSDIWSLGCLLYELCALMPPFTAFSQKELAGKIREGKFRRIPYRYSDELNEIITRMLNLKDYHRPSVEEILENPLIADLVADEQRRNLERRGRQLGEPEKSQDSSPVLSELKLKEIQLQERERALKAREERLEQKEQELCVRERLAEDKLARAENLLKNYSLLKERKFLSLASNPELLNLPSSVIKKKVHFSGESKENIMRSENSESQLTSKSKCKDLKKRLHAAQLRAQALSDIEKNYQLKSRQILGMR
Chain of UniProt Q13557 (whole entry, looked up): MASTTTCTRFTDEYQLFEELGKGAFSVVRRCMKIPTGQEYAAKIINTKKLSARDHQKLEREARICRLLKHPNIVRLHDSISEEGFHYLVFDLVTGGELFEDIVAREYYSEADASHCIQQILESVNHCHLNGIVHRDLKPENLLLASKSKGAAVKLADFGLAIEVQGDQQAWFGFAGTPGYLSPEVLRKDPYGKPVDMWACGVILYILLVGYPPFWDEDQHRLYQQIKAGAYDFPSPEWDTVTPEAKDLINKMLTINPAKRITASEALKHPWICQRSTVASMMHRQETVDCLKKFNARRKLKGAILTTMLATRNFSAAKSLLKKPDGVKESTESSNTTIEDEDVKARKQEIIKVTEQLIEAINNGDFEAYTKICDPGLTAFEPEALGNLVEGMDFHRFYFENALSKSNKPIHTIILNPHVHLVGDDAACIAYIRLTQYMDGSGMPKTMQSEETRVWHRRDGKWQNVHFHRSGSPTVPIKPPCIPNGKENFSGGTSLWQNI
Chain of UniProt P15056 (whole entry, looked up): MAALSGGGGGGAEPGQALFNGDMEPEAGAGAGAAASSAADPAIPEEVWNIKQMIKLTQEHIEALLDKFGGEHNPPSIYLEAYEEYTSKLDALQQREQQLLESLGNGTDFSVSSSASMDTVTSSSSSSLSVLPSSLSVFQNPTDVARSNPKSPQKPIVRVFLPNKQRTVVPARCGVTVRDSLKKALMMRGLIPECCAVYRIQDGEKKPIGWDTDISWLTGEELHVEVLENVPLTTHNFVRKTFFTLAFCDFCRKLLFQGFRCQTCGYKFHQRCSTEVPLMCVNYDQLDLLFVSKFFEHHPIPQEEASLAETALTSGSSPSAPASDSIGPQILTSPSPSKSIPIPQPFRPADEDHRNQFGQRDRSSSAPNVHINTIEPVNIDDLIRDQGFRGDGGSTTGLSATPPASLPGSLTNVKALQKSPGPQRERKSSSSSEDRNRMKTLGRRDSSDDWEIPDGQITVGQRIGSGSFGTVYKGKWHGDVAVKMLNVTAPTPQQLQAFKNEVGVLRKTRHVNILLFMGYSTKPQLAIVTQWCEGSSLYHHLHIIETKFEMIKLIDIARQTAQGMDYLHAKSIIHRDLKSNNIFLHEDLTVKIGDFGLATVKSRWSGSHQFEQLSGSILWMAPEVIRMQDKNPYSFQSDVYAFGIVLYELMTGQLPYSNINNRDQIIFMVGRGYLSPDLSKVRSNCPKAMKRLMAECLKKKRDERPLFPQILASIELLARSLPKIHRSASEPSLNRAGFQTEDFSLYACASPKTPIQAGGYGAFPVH
Chain of UniProt Q96RR4 (whole entry, looked up): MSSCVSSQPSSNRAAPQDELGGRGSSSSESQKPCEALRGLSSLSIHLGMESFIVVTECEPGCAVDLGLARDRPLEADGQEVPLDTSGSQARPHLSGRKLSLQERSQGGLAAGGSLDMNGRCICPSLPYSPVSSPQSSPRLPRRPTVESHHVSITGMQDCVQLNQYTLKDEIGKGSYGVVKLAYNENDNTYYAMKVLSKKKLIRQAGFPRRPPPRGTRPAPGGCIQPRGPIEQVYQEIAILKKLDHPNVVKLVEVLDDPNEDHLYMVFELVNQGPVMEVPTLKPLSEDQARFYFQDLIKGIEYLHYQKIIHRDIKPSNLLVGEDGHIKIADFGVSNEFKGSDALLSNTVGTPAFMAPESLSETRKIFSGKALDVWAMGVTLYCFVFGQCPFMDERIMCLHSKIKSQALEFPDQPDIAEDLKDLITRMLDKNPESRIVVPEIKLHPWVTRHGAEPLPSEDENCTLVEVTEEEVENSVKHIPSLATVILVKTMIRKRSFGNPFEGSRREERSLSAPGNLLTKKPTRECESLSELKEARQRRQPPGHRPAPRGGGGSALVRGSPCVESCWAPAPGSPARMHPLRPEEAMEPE
Chain of UniProt O94804 (whole entry, looked up): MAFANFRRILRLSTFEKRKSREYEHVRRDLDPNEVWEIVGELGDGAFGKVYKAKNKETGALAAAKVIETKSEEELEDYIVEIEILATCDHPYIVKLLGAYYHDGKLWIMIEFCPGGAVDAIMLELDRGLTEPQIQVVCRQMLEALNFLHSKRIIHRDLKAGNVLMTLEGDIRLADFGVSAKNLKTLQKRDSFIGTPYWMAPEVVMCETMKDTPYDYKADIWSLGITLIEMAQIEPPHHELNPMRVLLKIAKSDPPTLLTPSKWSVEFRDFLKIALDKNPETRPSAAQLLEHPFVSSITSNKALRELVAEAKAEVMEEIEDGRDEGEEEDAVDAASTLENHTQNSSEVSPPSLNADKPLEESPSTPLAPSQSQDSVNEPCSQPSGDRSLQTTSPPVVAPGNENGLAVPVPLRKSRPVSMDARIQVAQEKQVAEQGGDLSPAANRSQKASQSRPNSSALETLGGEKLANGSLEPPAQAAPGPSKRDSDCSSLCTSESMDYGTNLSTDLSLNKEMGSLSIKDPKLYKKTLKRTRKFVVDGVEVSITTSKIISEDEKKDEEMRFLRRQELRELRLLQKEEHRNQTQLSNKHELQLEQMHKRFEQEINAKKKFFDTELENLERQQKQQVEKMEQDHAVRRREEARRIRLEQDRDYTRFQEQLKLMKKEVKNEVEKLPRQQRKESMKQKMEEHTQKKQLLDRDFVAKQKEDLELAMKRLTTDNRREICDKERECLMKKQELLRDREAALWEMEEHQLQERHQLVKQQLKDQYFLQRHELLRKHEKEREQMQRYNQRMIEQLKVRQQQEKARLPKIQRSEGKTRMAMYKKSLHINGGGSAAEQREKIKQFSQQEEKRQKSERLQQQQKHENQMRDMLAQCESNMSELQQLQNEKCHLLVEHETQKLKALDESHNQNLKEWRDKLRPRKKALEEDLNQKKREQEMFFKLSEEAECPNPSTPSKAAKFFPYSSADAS
Chain of UniProt P22455 (whole entry, looked up): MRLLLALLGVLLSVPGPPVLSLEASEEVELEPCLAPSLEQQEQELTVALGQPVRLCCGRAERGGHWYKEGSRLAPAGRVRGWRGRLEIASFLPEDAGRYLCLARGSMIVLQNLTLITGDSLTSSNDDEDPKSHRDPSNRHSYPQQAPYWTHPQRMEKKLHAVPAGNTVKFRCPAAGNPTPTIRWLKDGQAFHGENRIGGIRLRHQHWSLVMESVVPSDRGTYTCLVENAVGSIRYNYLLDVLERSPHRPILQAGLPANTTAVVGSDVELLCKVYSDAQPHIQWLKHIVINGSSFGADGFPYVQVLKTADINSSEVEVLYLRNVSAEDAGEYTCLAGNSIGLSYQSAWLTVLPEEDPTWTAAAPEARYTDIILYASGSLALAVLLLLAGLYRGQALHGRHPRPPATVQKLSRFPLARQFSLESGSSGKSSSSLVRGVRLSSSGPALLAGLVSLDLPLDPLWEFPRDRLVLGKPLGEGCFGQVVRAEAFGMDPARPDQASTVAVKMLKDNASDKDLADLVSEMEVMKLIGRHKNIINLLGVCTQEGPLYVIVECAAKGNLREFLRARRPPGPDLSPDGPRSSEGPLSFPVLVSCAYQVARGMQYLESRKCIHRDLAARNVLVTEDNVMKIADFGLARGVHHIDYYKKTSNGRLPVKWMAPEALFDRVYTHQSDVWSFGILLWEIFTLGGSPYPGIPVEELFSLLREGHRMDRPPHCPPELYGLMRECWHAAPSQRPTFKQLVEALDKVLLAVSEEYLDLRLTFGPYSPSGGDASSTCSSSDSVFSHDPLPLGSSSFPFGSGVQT
Chain of UniProt O75716 (whole entry, looked up): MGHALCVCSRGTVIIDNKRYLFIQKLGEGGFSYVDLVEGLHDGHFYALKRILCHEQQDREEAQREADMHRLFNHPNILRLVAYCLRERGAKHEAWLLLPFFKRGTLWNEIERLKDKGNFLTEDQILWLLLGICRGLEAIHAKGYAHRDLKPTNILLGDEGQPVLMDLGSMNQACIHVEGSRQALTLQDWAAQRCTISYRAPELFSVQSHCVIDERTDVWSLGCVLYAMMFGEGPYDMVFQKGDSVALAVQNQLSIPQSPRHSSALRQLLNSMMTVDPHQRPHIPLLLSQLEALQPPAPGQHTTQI

Block 1
SMILES: CCC(=O)N[C@H]1CC[C@@H](C(=O)N(C)c2ccc(-c3nc4ccccc4o3)cc2)C1
Read-out: cell-free assay
Technique: competition with immobilised ligand
Concentration: 1 µM
Quantity: remaining binding
target = Phosphatidylinositol 4,5-bisphosphate 3-kinase catalytic subunit delta isoform (PIK3CD, Homo sapiens, UniProt O00329); value = 100%
target = Serine/threonine-protein kinase PAK 6 (PAK6, Homo sapiens, UniProt Q9NQU5); value = 100%
target = Serine/threonine-protein kinase B-raf (BRAF, Homo sapiens, UniProt P15056); value = 100%
target = Fibroblast growth factor receptor 4 (FGFR4, Homo sapiens, UniProt P22455); value = 100%
target = Serine/threonine-protein kinase 16 (STK16, Homo sapiens, UniProt O75716); value = 100%

Block 2
Species: mouse
Medium: microsomes or S9
Concentration: 2 µM
Time: 0.5 h
Quantity: remaining compound
SMILES = C=CCn1c(N)nnc1SC(C)C(=O)NC(N)=O (stereo not drawn); value = 99.6%
SMILES = CCOC(=O)c1sc(NC(=O)c2cc(OCC)c(OCC)c(OCC)c2)c(C(N)=O)c1C; value = 58.8%
SMILES = COc1ccc2c(c1)OC(=O)C(C(O)c1ccc3c(c1)OCO3)C2c1ccccc1 (stereo not drawn); value = > 100%

Block 3
Cell line: mouse MPNST tumor cells
Technique: high-content nuclear imaging
Refers to: cell number
Concentration: 10 µM
Time: 12 h
Notes: mean of 2 replicates
Reference: plate mean
Reading: higher = more cells
Quantity: nuclei count
Structure (SMILES) = COc1cccc([C@H](O)C2CCN(CCc3ccc(F)cc3)CC2)c1OC; value = 1.84 z-score
Structure (SMILES) = O=C(O)c1ccc(C=C2SC(=S)N(c3cccc(C(F)(F)F)c3)C2=O)cc1; value = -1.15 z-score
Structure (SMILES) = C=C(CC(=O)OCCCCCCCC)C(=O)O; value = -0.566 z-score
Structure (SMILES) = O=C1COc2nccc(-c3ccccc3F)c2CN1Cc1cc(C(F)(F)F)cc(C(F)(F)F)c1; value = -0.154 z-score

Block 4
SMILES: CN(C)S(=O)(=O)c1ccc2c(c1)/C(=C/c1cc3c([nH]1)CCCC3)C(=O)N2
Read-out: enzyme activity
Action: inhibitor
Concentration: 0.5 µM
Reference: control
Quantity: remaining activity
target = cGMP-dependent protein kinase 1, isoform beta (PRKG1, Homo sapiens, UniProt Q13976); value = 88.6%
target = Calcium/calmodulin-dependent protein kinase kinase 2 (CAMKK2, Homo sapiens, UniProt Q96RR4); value = 27.3%
target = cAMP-dependent protein kinase catalytic subunit alpha (PRKACA, Homo sapiens, UniProt P17612); value = 106%
target = Serine/threonine-protein kinase 10 (STK10, Homo sapiens, UniProt O94804); value = 9.53%
target = Calcium/calmodulin-dependent protein kinase type II subunit delta (CAMK2D, Homo sapiens, UniProt Q13557); value = 73.2%
target = Inhibitor of nuclear factor kappa-B kinase subunit epsilon (IKBKE, Homo sapiens, UniProt Q14164); value = 87.9%
target = TGF-beta receptor type-2 (TGFBR2, Homo sapiens, UniProt P37173); value = 129%
target = Serine/threonine-protein kinase Nek2 (NEK2, Homo sapiens, UniProt P51955); value = 98%
target = Serine/threonine-protein kinase OSR1 (OXSR1, Homo sapiens, UniProt O95747); value = 89.1%
target = Protein kinase C beta type, isoform beta-I (PRKCB, Homo sapiens, UniProt P05771); value = 106%
target = Protein kinase C alpha type (PRKCA, Homo sapiens, UniProt P17252); value = 94.9%
target = TGF-beta receptor type-1 (TGFBR1, Homo sapiens, UniProt P36897); value = 95.9%

A few entries again (block 4):
target = Calcium/calmodulin-dependent protein kinase kinase 2 (CAMKK2, Homo sapiens, UniProt Q96RR4); value = 27.3%
target = Serine/threonine-protein kinase 10 (STK10, Homo sapiens, UniProt O94804); value = 9.53%
target = TGF-beta receptor type-1 (TGFBR1, Homo sapiens, UniProt P36897); value = 95.9%
target = Inhibitor of nuclear factor kappa-B kinase subunit epsilon (IKBKE, Homo sapiens, UniProt Q14164); value = 87.9%
